Published values of several laboratories.
± marks the error that the study gave.

The tissue uptake of `CC(C)C[C@@H](NC(=O)[C@@H](CC(C)C)NC(=O)[C@@H](CC(=O)O)NC(=O)[C@@H](CC(C)C)NC(=O)[C@@H](CC(C)C)NC(=O)[C@@H](CC(C)C)NC(=O)[C@H](NC(=O)[C@@H](CC(=O)O)NC(=O)[C@H](NC(=O)[C@H]1CCCN1C(=O)[C@@H](Cc1ccccc1)NC(=O)[C@@H](CC(C)C)NC(=O)[C@@H](CC(C)C)NC(=O)[C@@H](CC(=O)O)NC(=O)[C@@H](CC(C)C)NC(=O)[C@@H](Cc1ccc(O)cc1)NC(=O)[C@@H](C)NC(=O)[C@@H](CCCNC(=N)N)NC(=O)[C@@H](Cc1c[nH]c2ccccc12)NC(=O)[C@H]1CCCN1C(=O)[C@@H](CC(N)=O)NC(=O)[C@@H](CCC(N)=O)NC(=O)[C@@H](CC(=O)O)NC(=O)[C@@H](CC(=O)O)NC(=O)[C@@H](CSC1CC(=O)N(CCNC(=O)CN2CCN(CC(=O)O)CCN(CC(=O)O)CC2)C1=O)NC(=O)[C@@H](C)N)[C@H](C)O)[C@H](C)O)C(=O)N[C@H](Cc1c[nH]c2ccccc12)C(=O)O` (stereo partly shown) [fluorine-18 labelled] is reported as 15.3 %ID/g (female C57BL/6 mice, B16-F10 melanoma, blood; intravenous, 6 h).
With `CCCC[C@@H]1NC(=O)[C@@H](CC(C)C)NC(=O)[C@H](CCCCNC(=O)CN2CCN(CC(=O)O)CCN(CC(=O)O)CC2)NC(=O)[C@@H](CO)NC(=O)[C@H](Cc2c[nH]cn2)NC(=O)[C@@H](Cc2c[nH]c3ccccc23)NC1=O` [copper-64 labelled] the tissue uptake was 10.3 ± 0.81 %ID/g (Balb/c mice, spleen; intravenous, dose not given).
`CC(C)C[C@H](NC(=O)[C@@H](CCCCNC(=O)[C@@H](Cc1ccccc1)NC(=O)CCCCCNC(=O)CN1CCN(CC(=O)O)CCN(CC(=O)O)CCN(CC(=O)O)CC1)NC(=O)[C@H](Cc1ccc(O)cc1)NC(=O)[C@H](CO)NC(=O)[C@H](Cc1c[nH]c2ccccc12)NC(=O)[C@H](Cc1c[nH]cn1)NC(=O)[C@@H]1CCC(=O)N1)C(=O)N[C@@H](CCCNC(=N)N)C(=O)N1CCC[C@H]1C(=O)NCC(N)=O` [indium-111 labelled] has a tissue uptake of 0.15 ± 0.03 %ID/g (female athymic nude mice, tumor; intravenous, 0.037 MBq, 4 h).
With `COc1cccc(Nc2nc(NCC3CCCO3)c3ccccc3n2)c1.Cl` (stereo not shown) the relative translation was 79.9% (Trypanosoma cruzi; reporter mRNA translation, inhibitor, refers to: capped polyadenylated Renilla luciferase mRNA; cell-free extract; concentration not given; reference: control RNA).
The tissue uptake of `N#C[C@@H]1CC(F)(F)CN1C(=O)CNC(=O)c1ccnc2ccc(OCCCN3CCN(C(=S)Nc4ccc(C[C@H]5CN(Cc6ccccn6)CCN(Cc6ccccn6)CCN(Cc6ccccn6)CCN5Cc5ccccn5)cc4)CC3)cc12` [lead-203 labelled] is reported as 31.4 ± 1.02 %ID/g (male NRG mice HEK293T-hFAP tumour, liver; intravenous, 100 pmol, 1 h, unblocked).
For `Cc1cc(-c2ccc(NC(=O)CC[C@H](NC(=O)CN3CCN(CC(=O)O)CCN(CC(=O)O)CCN(CC(=O)O)CC3)C(=O)NCC(=O)N[C@@H](CC(N)=O)C(=O)N[C@H](C(=O)N[C@H](C(=O)N[C@@H](CCCNC(=N)N)C(=O)N[C@@H](CCC(N)=O)C(=O)O)C(C)C)C(C)C)c(C)c2)ccc1/N=N/c1ccc2c(S(=O)(=O)O)cc(S(=O)(=O)O)c(N)c2c1O` [copper-64 labelled], the tissue uptake was 13.7 ± 2.04 %ID/g (nude mice, heart; intravenous, 4 h).
With `N#C[C@@H]1CC(F)(F)CN1C(=O)CNC(=O)c1ccnc2ccc(OCCCN3CCN(C(=O)CN4CCN(CC(N)=O)CCN(CC(N)=O)CCN(CC(N)=O)CC4)CC3)cc12` [lead-212 labelled] the tissue uptake was 0.97 ± 0.1 %IA/g (male NRG mice, HEK293T-hFAP tumour, blood; intravenous, 100 pmol, 1 h, ex vivo, unblocked).
`C[C@@H](O)[C@@H]1NC(=O)[C@H](CCCCN)NC(=O)[C@@H](Cc2c[nH]c3ccccc23)NC(=O)[C@H](Cc2ccc(O)cc2)NC(=O)[C@@H](NC(=O)[C@@H](Cc2ccccc2)NC(=O)CN2CCN(CC(=O)O)CCN(CC(=O)O)CCN(CC(=O)O)CC2)CSSC[C@@H](C(=O)N[C@H](CO)[C@@H](C)O)NC1=O` [gallium-67 labelled] has a tissue uptake of 0.16 ± 0.03 %ID/g (gamma counting; ICR mice, male, muscle; iv, 11 kBq/mouse, 1 h).
With `CCCC[C@@H]1NC(=O)[C@@H](CC(C)C)NC(=O)[C@H](CCCCNC(=O)CN2CCN(CC(=O)O)CCN(CC(=O)O)CC2)NC(=O)NNC(=O)[C@H](Cc2c[nH]cn2)NC(=O)[C@@H](Cc2c[nH]c3ccccc23)NC1=O` [copper-64 labelled] the tissue uptake was 0.11 ± 0.03 %ID/g (Balb/c mice, heart; intravenous, dose not given).
With `CC(=O)c1cccc(CN2CCCC(CCC(=O)NCc3ccc(F)c(F)c3)C2)c1` (stereo not shown) the relative translation was 110% (Trypanosoma cruzi; reporter mRNA translation, inhibitor, refers to: capped polyadenylated Renilla luciferase mRNA; cell-free extract; concentration not given; reference: control RNA).
